# Results of several laboratories.
# Protocols differ between the studies behind these lines. Numbers after ± are the reported error.
Structure (SMILES),cell line,test,test system,conditions,IC50
CC(C)(C)c1ccc(NC(=S)N/N=C/c2ccccc2O)cc1,HUVEC,"cell growth or viability, CCK-8",,24 h,3.76 µg/mL
CCSc1ncc(-c2cc(-c3ccc(Br)cc3)[nH]c(=O)c2C#N)n1Cc1ccccc1,HT-29,"cell growth or viability, MTT",,24 h,97 µM
CCCCn1cc(C(=O)O)c(=O)c2cc(F)c(N)c([N+](=O)[O-])c21,HT-29,"cell growth, SRB",,72 h,190 ± 8.7 µg/mL
Cc1cc(=O)c2c(O)c3c(O[C@@H]4O[C@H](CO)[C@@H](O)[C@H](O)[C@H]4O)cc(O)cc3cc2o1,HK-2 in HepaRG co-culture,"cell viability, MTT",,48 h,391 µM
O=C(Nc1ccc2c(c1)CN(c1ccccc1)C2=O)N1CC[C@H](O)C1,primary peritoneal mouse macrophages,cytotoxicity,5% fetal calf serum,,> 64 µM
O=C1C=C(c2coc3cc(O)cc(O)c3c2=O)C(=O)C([N+](=O)[O-])=C1O,HT-29,"cytotoxicity, MTT",,72 h,inactive
CCCCn1cc(C(=O)O)c(=O)c2cc(F)c3[nH]nnc3c21,HT-29,"cell growth or viability, SRB",,,268 µM
COc1cc(O)c(-c2ccc(OC)c3c(OC)cc(C)cc23)c2c1[C@H](C)N(C)[C@H](C)C2,L6,cytotoxicity,,,49.9 µM
O=C(Nc1ccc2c(c1)CN(c1ccccc1)C2=O)N1CC[C@H](F)C1,primary peritoneal mouse macrophages,cytotoxicity,5% fetal calf serum,,> 64 µM
CC(=O)[O-].Nc1ccc(C([O-])=NN=Cc2ccc(OCC(=O)Nc3ccc(Cl)cc3)cc2)cc1.[Co+2],HeLa,"cytotoxicity, MTT",,24 h,19.7 ± 2 µM
O=C(Nc1ccc2c(c1)CN(c1ccc(Cl)cc1)C2=O)N1CC[C@H](O)C1,primary peritoneal mouse macrophages,cytotoxicity,5% fetal calf serum,,> 64 µM
CSc1ncc(-c2cc(-c3ccc(Br)cc3)[nH]c(=N)c2C#N)n1Cc1ccccc1,HT-29,"cell growth or viability, MTT",,24 h,> 130 µM
Cc1ccc(N2Cc3cc(NC(=O)N4CCN(c5cccc(C(F)(F)F)c5)CC4)ccc3C2=O)cc1,primary peritoneal mouse macrophages,cytotoxicity,5% fetal calf serum,,> 64 µM
C=C(C)C(O)COc1c2occc2cc2ccc(=O)oc12 (stereo not drawn),NIH3T3,"cell growth or viability, MTT",,24 h,54.8 µM
O=C(Nc1ccc2c(c1)CN(c1ccccc1)C2=O)N1CCN(c2ccc(F)cc2)CC1,primary peritoneal mouse macrophages,cytotoxicity,5% fetal calf serum,,> 64 µM
CN1CCN(c2ccc(/C=C3\C(=O)Nc4ccc(-c5ccc(-c6ccc(O)cc6)cc5)cc43)cc2)CC1,NIH3T3,"cytotoxicity, WST-1",,"48 h, 10% FBS",> 1 µM
O=C(Nc1ccc2c(c1)CN(c1ccc(Cl)cc1)C2=O)N1CCN(c2ccc(F)cc2)CC1,primary peritoneal mouse macrophages,cytotoxicity,5% fetal calf serum,,> 64 µM
CNC(=O)c1c(C)oc2cc(Oc3ncnc4cc(OC)c(OCCCCCCC(=O)NO)cc34)ccc12,HUVEC,"cytotoxicity, CellTiter-Glo",,"72 h, 10% FBS",3.43 µM

# For quick reference, copied from above:
Structure (SMILES),cell line,test,test system,conditions,IC50
COc1cc(O)c(-c2ccc(OC)c3c(OC)cc(C)cc23)c2c1[C@H](C)N(C)[C@H](C)C2,L6,cytotoxicity,,,49.9 µM
